Measurements gathered from unrelated publications.
Lines come from different studies, so protocols differ. Numbers after ± are the reported error.

| Compound | cell line | assay | setting | scale | measurement | value |
| --- | --- | --- | --- | --- | --- | --- |
| Clc1cccc(-c2cc(CN3c4ccccc4C=Cc4ccccc43)on2)c1 | BJ | cytotoxicity | – | – | IC50 | > 30 µM |
| O=C(c1ccc(-c2cccc(C(F)(F)F)c2)cc1)N1CCN(c2ncccn2)CC1 | MDCK-LE cells | – | time not given, apical to basolateral | – | recovery | 43% |
| Clc1ccccc1-c1cc(CN2c3ccccc3C=Cc3ccccc32)on1 | BJ | cytotoxicity | – | – | IC50 | > 30 µM |
| O=C1c2c(O)cc(O)cc2-c2c(-c3ccc(O)cc3)oc3cc(O)cc1c23 | LCC2 shControl cells | label-free MS proteomics, item: CYP1B1 | 10 µM | reference: DMSO | protein level ratio | 37.5 |
| COc1ccc(CCNC2=CC3=[N+](C)CCc4c[nH]c(c43)C2=O)cc1 | HCT-116 | cell growth or viability, MTT | 72 h | – | CC50 | 0.2 µM |
| Cc1ccc2ccc(F)c(O)c2n1 | MDCK-II low-efflux (RRCK) cells | – | 1.5 h, apical to basal | – | Papp | 2.6 ×10⁻⁶ cm/s |
| Cc1ccc(S(=O)(=O)n2cc3c4c2C(=O)C(N)=CC4=NCC3)cc1 | HCT-116 | cell growth or viability, MTT | 72 h | – | CC50 | 1.5 µM |
| Clc1ccc(-c2cc(CN3c4ccccc4C=Cc4ccccc43)on2)cc1 | BJ | cytotoxicity | – | – | IC50 | > 30 µM |
| Cc1cccnc1-c1csc(C(=O)Nc2cc(Cl)cc(NS(C)(=O)=O)c2)c1 | BJ | cell growth or viability, ATP luminescence | 10 days | – | CC50 | > 10 µM |
| COc1cc([C@@H]2O[C@@H](c3cc(OC)c(O[C@@H]4O[C@H](CO)[C@@H](O)[C@H](O)[C@H]4O)c(OC)c3)[C@H](CO)[C@H]2CO)cc(OC)c1O | differentiating 3T3-L1 | – | – | – | non-cytotoxic concentration | 1 to 20 µM |
| Cc1ccc(C)c(/C=C/C(=O)c2ccc(O)cc2)c1 | U-87 MG | cell growth, MTT | 72 h | – | IC50 | > 20 µM |
| O=C(O)CCCOc1ccc(O)cc1-c1cc(-c2ccccc2C(F)(F)F)n(-c2ccccc2)n1 | human iPSC-derived cardiomyocytes | – | 2 µM | – | beat rate | 45.5 ± 2.7 min⁻¹ |
| COc1c(F)c(F)c(Cn2c3cc(=O)n(Cc4cccc(Cl)n4)c(C)c3c(=O)n2-c2ncc(F)cc2F)c(F)c1F | HEp-2 | – | 48 (unit not given) | – | CC50 | > 45 µM |
| CCOc1ccc(-c2cc(CN3c4ccccc4C=Cc4ccccc43)on2)cc1 | BJ | cell growth or viability | – | – | IC50 | 47.3 µM |
| Cc1nc2cccc(OCC(C)(C)C(=O)NC(C)C)c2c(N)c1C(=O)[O-].[Na+] | human peripheral blood lymphocytes | – | 125 g/mL, 20 h, without S9 | – | relative mitotic index | 108% |
| N#Cc1ccccc1-c1cc(CN2c3ccccc3C=Cc3ccccc32)on1 | BJ | cell growth or viability | – | – | IC50 | 11.4 µM |
| COc1cc(F)ccc1Cn1c2cc(=O)n(Cc3cccc(N=[N+]=[N-])n3)c(C)c2c(=O)n1-c1ccccn1 | HEp-2 | cytotoxicity | 48 (unit not given) | – | Hill slope | -4.22 |
| C[N+]1=C2C=C(NCCc3c[nH]c4ccccc34)C(=O)c3[nH]cc(c32)CC1 | HCT-116 | cell growth or viability, MTT | 72 h | – | CC50 | 0.3 µM |
| Fc1cccc(-c2cc(CN3c4ccccc4C=Cc4ccccc43)on2)c1 | BJ | cytotoxicity | – | – | IC50 | > 30 µM |

| Compound | cell line | assay | setting | scale | measurement | value |
| --- | --- | --- | --- | --- | --- | --- |
| COc1ccc(Cn2c3cc(=O)n(Cc4cccc(C(F)(F)F)n4)c(C)c3c(=O)n2-c2ncc(F)cc2F)cc1 | HEp-2 | – | 48 (unit not given) | – | CC50 | > 45 µM |
| O=C1/C(=C/c2cc(Cl)c(O)c(Cl)c2)CNC/C1=C\c1cc(Cl)c(O)c(Cl)c1 | PC-12 | MTT | range over 3.75 to 60 µM, 24 and 48 h | – | cytotoxicity | not toxic |
| O=C1NC2(CC2)COc2ncc(F)cc2[C@H]2COCCN2c2ccn3ncc1c3n2 | CHL | – | 10 µg/mL, 24 h, without S9 | – | numerical aberrations | 0% |
| CC(C)N1C/C(=C\c2cc(Cl)c(O)c(Cl)c2)C(=O)/C(=C/c2cc(Cl)c(O)c(Cl)c2)C1 | PC-12 | MTT | range over 3.75 to 60 µM, 24 and 48 h | – | cytotoxicity | not toxic |
| C=CC(=O)Nc1cc(Nc2nccc(-c3cn(C)c4ccccc34)n2)c(OCC(F)(F)F)nc1N(C)CCN(C)C | human hepatocytes lot LTG | CYP1A2 enzyme activity, inducer | 10 µM | reference: omeprazole 100 µM | induction | 20.2% |
| Cc1c2ccnc(C(=O)N[C@H](C)CN(C)C)c2cc2c3cc(OCCCN4CCN(C)CC4)ccc3n(C)c12 | patient-derived LCL and iPSC | cell proliferation | concentration not given, 4 days, outcome no effect | – | cell viability | no effect |
| COc1c(F)c(F)c(Cn2c3cc(=O)n(Cc4cccc(C(F)(F)F)n4)c(C)c3c(=O)n2-c2ccccn2)c(F)c1F | HEp-2 | – | 48 (unit not given) | – | CC50 | > 5 µM |
| Fc1ccccc1-c1cc(CN2c3ccccc3C=Cc3ccccc32)on1 | BJ | cytotoxicity | – | – | IC50 | > 30 µM |
| O=C(c1ccc(C23CC(S(F)(F)(F)(F)F)(CO2)C3)cc1)N1CCN(c2ncccn2)CC1 | MDCK-LE cells | – | – | – | Papp A-B | 32 ×10⁻⁶ cm/s |
| CCNc1cc2c(cc1C)C1(c3cc(C)c(NCC)cc3O2)c2ccccc2C(=O)N1N=Cc1c[c-]c(-c2ccccn2)cc1.Cc1c(C)c(-c2ccc(-c3ccccc3)cc2)[c-](C)c1C.[Cl-].[Ir+3] | A549 | annexin V/PI flow cytometry | 0.5× IC50, 24 h | – | viable cells | 86.41 ± 0.12% |
| Cc1ccc2ccc(Cl)c(O)c2n1 | MDCK-II low-efflux (RRCK) cells | – | 1.5 h, apical to basal | – | Papp | 4 ×10⁻⁶ cm/s |
| Cc1c2c(=O)n(-c3ccccn3)n(Cc3ccc(C4(C(F)(F)F)N=N4)cc3)c2cc(=O)n1Cc1cccc(Cl)n1 | HEp-2 | cytotoxicity | 48 (unit not given) | – | Hill slope | ~-1280 |
| Cc1cccc(-c2cc(CN3c4ccccc4C=Cc4ccccc43)on2)c1 | BJ | cytotoxicity | – | – | IC50 | > 30 µM |
| CC1(C)C(NC(=O)C(=NOC2(C(=O)O)CC2)c2csc(N)n2)C(=O)N1OS(=O)(=O)O (stereo not shown) | human normal esophageal epithelial | – | – | – | CC50 | > 100 µM |
| COc1cc(C(=O)/C=C/c2ccc(OC(F)F)cc2)ccc1O | U-87 MG | cell growth, MTT | 72 h | – | IC50 | 15.06 ± 0.09 µM |
| O=C1C(=O)c2[nH]cc3c2C(=C1I)NCC3 | HCT-116 | cell growth or viability, MTT | 72 h | – | CC50 | 50 µM |
| CN1CCCNC(=O)c2cccc(c2)C(=O)NCCCN(C)CCCNc2cccc3c2C(=O)c2cccc(c2C3=O)NCCC1 | Ca9-22 | CCK-8 | 0.5 µM, 48 h | reference: untreated | viability | 38.2% |
| COC(=O)c1ccc(/C=C/C(=O)c2ccc(O)c(OC)c2)cc1 | U-87 MG | cell growth, MTT | 72 h | – | IC50 | 9.63 ± 0.27 µM |

A few entries again:
| Compound | cell line | assay | setting | scale | measurement | value |
| --- | --- | --- | --- | --- | --- | --- |
| CC(C)N1C/C(=C\c2cc(Cl)c(O)c(Cl)c2)C(=O)/C(=C/c2cc(Cl)c(O)c(Cl)c2)C1 | PC-12 | MTT | range over 3.75 to 60 µM, 24 and 48 h | – | cytotoxicity | not toxic |
| C=CC(=O)Nc1cc(Nc2nccc(-c3cn(C)c4ccccc34)n2)c(OCC(F)(F)F)nc1N(C)CCN(C)C | human hepatocytes lot LTG | CYP1A2 enzyme activity, inducer | 10 µM | reference: omeprazole 100 µM | induction | 20.2% |
| Cc1c2ccnc(C(=O)N[C@H](C)CN(C)C)c2cc2c3cc(OCCCN4CCN(C)CC4)ccc3n(C)c12 | patient-derived LCL and iPSC | cell proliferation | concentration not given, 4 days, outcome no effect | – | cell viability | no effect |
| COc1c(F)c(F)c(Cn2c3cc(=O)n(Cc4cccc(C(F)(F)F)n4)c(C)c3c(=O)n2-c2ccccn2)c(F)c1F | HEp-2 | – | 48 (unit not given) | – | CC50 | > 5 µM |
